Measured values of several laboratories.
Compare with care: the assays were run in different laboratories. ± gives the spread as reported.
Chain of UniProt Q9Y657 (whole entry, looked up): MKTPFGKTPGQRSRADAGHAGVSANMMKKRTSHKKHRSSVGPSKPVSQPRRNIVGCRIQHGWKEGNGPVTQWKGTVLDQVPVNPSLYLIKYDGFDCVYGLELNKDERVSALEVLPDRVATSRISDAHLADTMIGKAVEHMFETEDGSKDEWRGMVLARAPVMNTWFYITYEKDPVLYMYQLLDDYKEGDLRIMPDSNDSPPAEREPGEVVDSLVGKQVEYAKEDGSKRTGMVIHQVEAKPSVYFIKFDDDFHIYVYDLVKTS
Chain of UniProt Q14974 (whole entry, looked up): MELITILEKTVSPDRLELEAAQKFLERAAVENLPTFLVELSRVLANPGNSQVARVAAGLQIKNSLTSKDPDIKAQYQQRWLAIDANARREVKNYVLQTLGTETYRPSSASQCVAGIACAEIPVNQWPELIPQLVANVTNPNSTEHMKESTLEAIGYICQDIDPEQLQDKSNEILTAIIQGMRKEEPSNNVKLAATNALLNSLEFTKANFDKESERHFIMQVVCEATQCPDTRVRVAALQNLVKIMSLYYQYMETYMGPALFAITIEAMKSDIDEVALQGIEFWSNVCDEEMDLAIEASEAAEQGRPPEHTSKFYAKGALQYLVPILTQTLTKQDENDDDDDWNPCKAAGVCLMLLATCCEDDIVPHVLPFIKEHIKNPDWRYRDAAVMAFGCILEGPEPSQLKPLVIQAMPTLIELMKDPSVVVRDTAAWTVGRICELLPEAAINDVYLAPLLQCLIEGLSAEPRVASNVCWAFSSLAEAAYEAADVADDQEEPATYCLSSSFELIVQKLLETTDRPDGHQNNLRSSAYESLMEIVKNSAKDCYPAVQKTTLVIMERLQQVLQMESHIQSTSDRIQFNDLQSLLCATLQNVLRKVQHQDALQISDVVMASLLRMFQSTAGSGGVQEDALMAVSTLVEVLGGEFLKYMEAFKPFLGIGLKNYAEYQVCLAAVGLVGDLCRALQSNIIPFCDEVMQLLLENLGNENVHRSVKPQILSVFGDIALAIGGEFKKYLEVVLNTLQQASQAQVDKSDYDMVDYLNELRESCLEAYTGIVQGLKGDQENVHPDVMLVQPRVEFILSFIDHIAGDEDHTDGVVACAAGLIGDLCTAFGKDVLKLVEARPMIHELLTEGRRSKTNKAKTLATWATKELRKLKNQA
Chain of UniProt Q9HB29 (whole entry, looked up): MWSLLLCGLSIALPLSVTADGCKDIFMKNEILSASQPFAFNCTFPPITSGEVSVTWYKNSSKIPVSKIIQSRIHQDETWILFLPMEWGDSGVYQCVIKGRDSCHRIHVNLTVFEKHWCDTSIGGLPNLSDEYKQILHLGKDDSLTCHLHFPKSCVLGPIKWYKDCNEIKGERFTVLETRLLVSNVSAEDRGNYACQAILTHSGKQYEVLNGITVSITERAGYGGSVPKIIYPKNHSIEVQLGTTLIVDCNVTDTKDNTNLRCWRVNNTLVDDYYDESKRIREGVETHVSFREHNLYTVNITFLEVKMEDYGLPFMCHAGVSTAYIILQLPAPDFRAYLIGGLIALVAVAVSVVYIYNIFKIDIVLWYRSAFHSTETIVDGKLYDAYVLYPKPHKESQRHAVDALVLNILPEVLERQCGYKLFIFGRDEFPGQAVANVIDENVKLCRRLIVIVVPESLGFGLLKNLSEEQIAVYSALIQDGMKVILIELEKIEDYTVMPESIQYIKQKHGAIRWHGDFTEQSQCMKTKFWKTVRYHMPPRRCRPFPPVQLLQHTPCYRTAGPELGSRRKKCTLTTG
Chain of UniProt P07237 (whole entry, looked up): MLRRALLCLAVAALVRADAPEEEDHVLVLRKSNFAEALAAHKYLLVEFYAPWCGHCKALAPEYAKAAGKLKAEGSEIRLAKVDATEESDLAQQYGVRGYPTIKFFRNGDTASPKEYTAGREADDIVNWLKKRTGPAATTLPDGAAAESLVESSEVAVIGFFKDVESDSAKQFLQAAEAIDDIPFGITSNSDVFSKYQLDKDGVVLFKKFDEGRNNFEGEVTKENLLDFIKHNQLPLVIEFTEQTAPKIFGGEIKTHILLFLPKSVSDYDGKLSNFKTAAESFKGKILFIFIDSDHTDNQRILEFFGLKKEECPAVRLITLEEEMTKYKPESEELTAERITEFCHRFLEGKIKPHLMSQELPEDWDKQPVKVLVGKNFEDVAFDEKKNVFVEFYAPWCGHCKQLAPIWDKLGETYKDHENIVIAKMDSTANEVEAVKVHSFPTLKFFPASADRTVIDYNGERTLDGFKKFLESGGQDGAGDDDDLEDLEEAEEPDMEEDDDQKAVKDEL
Chain of UniProt P00747 (whole entry, unmodified, looked up): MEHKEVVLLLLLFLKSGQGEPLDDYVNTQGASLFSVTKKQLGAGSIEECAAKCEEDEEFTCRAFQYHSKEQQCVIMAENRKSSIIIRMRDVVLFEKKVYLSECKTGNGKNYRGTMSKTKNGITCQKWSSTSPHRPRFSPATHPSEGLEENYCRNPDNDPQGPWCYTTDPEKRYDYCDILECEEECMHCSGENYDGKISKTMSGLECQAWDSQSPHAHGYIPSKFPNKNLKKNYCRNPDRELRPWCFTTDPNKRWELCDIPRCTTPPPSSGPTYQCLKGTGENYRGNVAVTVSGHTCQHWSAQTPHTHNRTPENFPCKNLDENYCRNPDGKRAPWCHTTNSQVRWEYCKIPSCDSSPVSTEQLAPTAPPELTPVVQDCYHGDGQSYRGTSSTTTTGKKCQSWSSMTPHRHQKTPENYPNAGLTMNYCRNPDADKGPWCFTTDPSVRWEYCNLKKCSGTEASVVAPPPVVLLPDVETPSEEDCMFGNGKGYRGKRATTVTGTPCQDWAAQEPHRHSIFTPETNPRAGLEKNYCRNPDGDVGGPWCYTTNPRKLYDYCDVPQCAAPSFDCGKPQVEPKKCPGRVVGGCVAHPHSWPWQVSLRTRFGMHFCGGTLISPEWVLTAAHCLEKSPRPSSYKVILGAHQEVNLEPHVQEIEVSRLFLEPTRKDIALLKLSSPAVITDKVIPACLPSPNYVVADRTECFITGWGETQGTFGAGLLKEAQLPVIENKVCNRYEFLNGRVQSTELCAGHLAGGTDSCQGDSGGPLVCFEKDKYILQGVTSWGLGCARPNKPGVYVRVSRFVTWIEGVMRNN
Chain of UniProt Q9BY41 (whole entry, looked up): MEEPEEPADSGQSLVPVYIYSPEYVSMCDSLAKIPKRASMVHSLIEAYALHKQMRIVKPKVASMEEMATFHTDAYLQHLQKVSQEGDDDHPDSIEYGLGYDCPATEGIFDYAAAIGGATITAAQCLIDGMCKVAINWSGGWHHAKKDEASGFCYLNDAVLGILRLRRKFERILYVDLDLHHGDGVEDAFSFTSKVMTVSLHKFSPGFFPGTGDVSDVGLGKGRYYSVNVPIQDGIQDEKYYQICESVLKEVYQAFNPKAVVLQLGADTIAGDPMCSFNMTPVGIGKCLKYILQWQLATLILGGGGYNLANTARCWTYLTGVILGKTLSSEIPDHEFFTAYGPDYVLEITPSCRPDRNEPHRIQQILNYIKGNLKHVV
Chain of UniProt Q9LFP6 (whole entry, looked up): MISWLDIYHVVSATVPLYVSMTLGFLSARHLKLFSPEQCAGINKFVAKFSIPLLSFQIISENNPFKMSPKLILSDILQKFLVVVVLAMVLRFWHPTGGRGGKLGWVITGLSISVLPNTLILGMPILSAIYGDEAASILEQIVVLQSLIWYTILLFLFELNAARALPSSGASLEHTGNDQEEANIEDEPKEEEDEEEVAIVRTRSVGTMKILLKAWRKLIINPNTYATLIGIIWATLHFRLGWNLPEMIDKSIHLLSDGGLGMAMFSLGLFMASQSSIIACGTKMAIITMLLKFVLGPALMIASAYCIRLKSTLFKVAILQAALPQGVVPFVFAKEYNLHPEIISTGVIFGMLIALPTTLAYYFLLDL
Chain of UniProt Q9UER7 (55-144, looked up): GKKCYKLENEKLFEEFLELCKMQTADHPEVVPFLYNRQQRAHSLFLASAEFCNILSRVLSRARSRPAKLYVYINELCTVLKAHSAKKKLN
Chain of UniProt P0A988 (whole entry, looked up): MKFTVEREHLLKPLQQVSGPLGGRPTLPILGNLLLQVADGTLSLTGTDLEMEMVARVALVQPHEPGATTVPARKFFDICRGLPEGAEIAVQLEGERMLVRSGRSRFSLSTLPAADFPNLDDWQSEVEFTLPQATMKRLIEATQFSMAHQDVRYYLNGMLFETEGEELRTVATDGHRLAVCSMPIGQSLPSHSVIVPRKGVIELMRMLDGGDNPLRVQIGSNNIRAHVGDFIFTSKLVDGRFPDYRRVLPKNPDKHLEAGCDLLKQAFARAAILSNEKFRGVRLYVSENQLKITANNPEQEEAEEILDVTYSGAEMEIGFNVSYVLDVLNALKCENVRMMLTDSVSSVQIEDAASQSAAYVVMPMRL
Chain of UniProt O66465 (whole entry, looked up): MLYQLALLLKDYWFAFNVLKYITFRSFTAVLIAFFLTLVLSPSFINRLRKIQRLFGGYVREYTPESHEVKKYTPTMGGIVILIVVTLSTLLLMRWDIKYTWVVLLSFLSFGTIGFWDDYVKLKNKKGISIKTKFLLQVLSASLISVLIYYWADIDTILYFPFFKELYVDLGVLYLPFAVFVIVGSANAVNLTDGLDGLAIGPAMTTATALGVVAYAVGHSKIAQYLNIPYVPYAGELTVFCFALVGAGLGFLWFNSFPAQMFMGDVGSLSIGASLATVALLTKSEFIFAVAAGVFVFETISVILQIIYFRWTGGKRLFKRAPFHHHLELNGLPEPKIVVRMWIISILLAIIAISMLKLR

CCC(C(=O)OC)C1N=C(c2ccc(Cl)cc2)c2cc(OC)ccc2-n2c(C)nnc21 (stereo not shown)
Kd (Bromodomain-containing protein 2, BD2 (BRD2, Homo sapiens, UniProt P25440); binding, ITC): 17000 nM

C/C=C/C(=O)NC[C@H](NC(=O)[C@H](CC1CCCCC1)NC(=O)[C@H](CCC(N)=O)NC(C)=O)C(=O)N[C@@H](CC(C)C)C(=O)N[C@@H](Cc1ccccc1)C(=O)O
Kd (Beta sliding clamp (Escherichia coli, UniProt P0A988); binding, ITC): 402 nM

CNC(=N)NCCC[C@H](NC(=O)[C@H](C)NC(=O)[C@@H](NC(=O)[C@H](CCC(N)=O)NC(=O)[C@H](CCCC[N+](C)(C)C)NC(=O)[C@@H](NC(=O)[C@H](CCCNC(=N)N)NC(=O)[C@H](C)N)[C@@H](C)O)[C@@H](C)O)C(=O)N[C@@H](CCCCN)C(=O)N[C@@H](CO)C(=O)O
Kd (Spindlin-1 (SPIN1, Homo sapiens, UniProt Q9Y657); binding, ITC; pH 7.5): 139 nM

O=C1N[C@@H](Cc2ccccc2)C(=O)N2CCCC[C@@H]2C(=O)N[C@@H](CCCCCC(=O)[C@@H]2CO2)C(=O)N[C@H]1Cc1ccccc1
Kd (HDAC8 (Homo sapiens, UniProt Q9BY41)): 3 ± 1 nM

CC(C)C[C@@H]1NC(=O)[C@H](Cc2ccc(O)cc2)NC(=O)[C@H](CCCNC(=N)N)NC(=O)[C@H](C(C)C)NC(=O)[C@@H]2CCCN2C(=O)[C@H](Cc2ccccc2)NC(=O)[C@H](C)NC(=O)[C@H](CC(N)=O)NC(=O)[C@H](Cc2ccc(OS(=O)(=O)F)cc2)NC(=O)[C@@H](Cc2ccccc2)NC(=O)CSC[C@@H](C(=O)NCCOCCOCC(=O)NCCOCCOCC(=O)N[C@@H](CCCCN=[N+]=[N-])C(N)=O)NC(=O)[C@H](Cc2c[nH]c3ccccc23)NC(=O)[C@H](CCCCN)NC(=O)[C@H](CCCCN)NC1=O
Kd (Nectin-4, extracellular domain (Homo sapiens, UniProt Q96NY8); covalent binder, SPR single-cycle kinetics; PBS-T; 30 s contact, 25 °C): 2820 nM

O=C(Nc1ccc([As](O)O)cc1)c1cc(C(=O)Nc2ccc([As](O)O)cc2)cc(C(=O)Nc2ccc([As](O)O)cc2)c1
Kd (Protein disulfide-isomerase, reduced (P4HB, Homo sapiens, UniProt P07237); binding, absorbance titration; pH 7.5, 25 °C): 100 nM

CC(C)C[C@H](NC(=O)[C@H](C)NC(=O)[C@H](CCCCN)NC(=O)[C@H](CCCNC(=N)N)NC(=O)[C@H](CCC(=O)O)NC(=O)[C@H](C)NC(=O)[C@H](CCC(=O)O)NC(=O)[C@H](CCCCN)NC(=O)[C@H](CCCCN)NC(=O)[C@H](CC(=O)O)NC(=O)[C@H](Cc1c[nH]cn1)NC(=O)[C@H](CC(=O)O)NC(=O)[C@H](Cc1c[nH]cn1)NC(=O)[C@H](CCCNC(=N)N)NC(=O)[C@H](CCC(=O)O)NC(=O)[C@H](CO)NC(=O)[C@H](CCCCN)NC(=O)[C@H](CC(C)C)NC(=O)[C@H](CCCNC(=N)N)NC(=O)[C@H](CCC(=O)O)NC(=O)[C@H](CC(C)C)NC(=O)[C@H](CCC(=O)O)NC(=O)[C@H](C)NC(=O)[C@H](CCC(=O)O)NC(=O)[C@H](CCC(=O)O)NC(=O)[C@H](C)NC(=O)[C@H](C)NC(=O)[C@H](CCC(=O)O)NC(=O)[C@H](CC(N)=O)NC(=O)[C@H](CCCCN)NC(=O)[C@H](CC(C)C)NC(=O)[C@H](CCCNC(=N)N)NC(=O)[C@H](CCC(N)=O)NC(=O)[C@H](CC(C)C)NC(=O)[C@H](CCC(=O)O)NC(=O)[C@H](C)NC(=O)[C@H](CC(=O)O)NC(=O)[C@H](C)NC(=O)[C@@H](NC(=O)[C@H](CC(C)C)NC(=O)[C@H](CCCCN)NC(=O)[C@H](CCC(=O)O)NC(=O)[C@@H](NC(=O)[C@H](CO)NC(=O)CN)C(C)C)[C@@H](C)O)C(=O)N[C@@H](CCC(=O)O)C(=O)N[C@@H](CC(=O)O)C(=O)N[C@@H](CCCCN)C(=O)N[C@@H](CC(C)C)C(=O)N[C@@H](C)C(=O)N[C@@H](CC(=O)O)C(=O)N[C@@H](Cc1ccc(O)cc1)C(=O)O
Kd (Plasminogen, kringle 2 domain (PLG, Homo sapiens, UniProt P00747, C188G/E240D/L256Y); isothermal titration calorimetry; K2-plasminogen; pH 7.4, 25 °C): 9 ± 2 nM

C=C(C)C12OC3(c4ccccc4)OC1C1C(O)C(Br)(CO)C(O)C4(O)C(=O)C(C)=CC4C1(O3)C(C)C2OC(=O)c1ccccc1 (stereo not shown)
Kd (KPNB1 (Homo sapiens, UniProt Q14974)): 219 nM

CC[C@H](C)[C@H](N)C(=O)N[C@@H](CO)C(=O)N[C@@H](Cc1ccccc1)C(=O)N[C@@H]1CSCc2ccc(cc2)-c2ccc(cc2)CSC[C@@H](C(=O)N[C@@H](CCC(=O)O)C(=O)N[C@@H](CO)C(=O)NCC(=O)N[C@@H](CO)C(N)=O)NC(=O)[C@H](Cc2ccc(O)cc2)NC(=O)[C@H](Cc2ccc(O)cc2)NC(=O)[C@H](CC(=O)O)NC(=O)[C@H](CC(C)C)NC(=O)[C@H](CC(C)C)NC(=O)[C@H](CCC(=O)O)NC1=O
Kd (HIV-1 capsid C-terminal domain M184A/W185A; binding, isothermal titration calorimetry): 17500 ± 6200 nM

CC[C@H](C)[C@H](NC(=O)[C@H](CCCNC(=N)N)NC(=O)[C@H](CC(N)=O)NC(=O)[C@H](CCC(=O)O)NC(=O)[C@@H]1CCCN1C(=O)[C@H](CC(=O)O)NC(=O)[C@H](CC(N)=O)NC(=O)[C@H](CC(=O)O)NC(=O)[C@H](CC(=O)O)NC(=O)[C@@H](N)CO)C(=O)N[C@@H](C)C(=O)N[C@@H](CCCCN)C(=O)N[C@]1(C)CCCCCCC=CCCC[C@@](C)(C(=O)N[C@@H](C)C(=O)N[C@@H](CC(N)=O)C(=O)N[C@@H](CC(C)C)C(=O)N[C@@H](CO)C(=O)O)NC(=O)[C@H]([C@@H](C)CC)NC(=O)[C@H](CCC(=O)O)NC(=O)[C@H](CCC(=O)O)NC(=O)[C@H](CC(C)C)NC(=O)[C@H](CC(C)C)NC(=O)[C@H](CCSC)NC1=O
Kd (Death domain-associated protein 6, residues 55-144 (Homo sapiens, UniProt Q9UER7); isothermal titration calorimetry; pH 7.5, 25 °C): 70 nM

Cc1cc(Cl)ccc1OCC(=O)O
Kd (PIN8 (Arabidopsis thaliana, UniProt Q9LFP6); cell-free assay): 137000 nM

CC[C@H](C)[C@H](NC(=O)[C@H](Cc1c[nH]cn1)NC(=O)[C@H](CCCCNC(=O)[C@@H](NC(=O)[C@H](CCCCN)NC(=O)[C@H](CCCCNC(=O)[C@H](CC(C)C)NC(=O)[C@@H]1CCCN1C(=O)[C@H](CCCCN)NC(=O)CSCCCCCCO[C@@H]1O[C@H](CO)[C@@H](O[C@@H]2O[C@@H](C)[C@@H](O)[C@@H](O)[C@@H]2O)[C@H](O[C@@H]2O[C@H](CO)[C@H](O)[C@H](O)[C@H]2O)[C@H]1NC(C)=O)NC(=O)[C@H](CC(C)C)NC(=O)[C@@H]1CCCN1C(=O)[C@H](CCCCN)NC(=O)CSCCCCCCO[C@@H]1O[C@H](CO)[C@@H](O[C@@H]2O[C@@H](C)[C@@H](O)[C@@H](O)[C@@H]2O)[C@H](O[C@@H]2O[C@H](CO)[C@H](O)[C@H](O)[C@H]2O)[C@H]1NC(C)=O)[C@@H](C)CC)NC(=O)[C@@H](NC(=O)[C@H](CCCCN)NC(=O)[C@H](CCCCNC(=O)[C@H](CC(C)C)NC(=O)[C@@H]1CCCN1C(=O)[C@H](CCCCN)NC(=O)CSCCCCCCO[C@@H]1O[C@H](CO)[C@@H](O[C@@H]2O[C@@H](C)[C@@H](O)[C@@H](O)[C@@H]2O)[C@H](O[C@@H]2O[C@H](CO)[C@H](O)[C@H](O)[C@H]2O)[C@H]1NC(C)=O)NC(=O)[C@H](CC(C)C)NC(=O)[C@@H]1CCCN1C(=O)[C@H](CCCCN)NC(=O)CSCCCCCCO[C@@H]1O[C@H](CO)[C@@H](O[C@@H]2O[C@@H](C)[C@@H](O)[C@@H](O)[C@@H]2O)[C@H](O[C@@H]2O[C@H](CO)[C@H](O)[C@H](O)[C@H]2O)[C@H]1NC(C)=O)[C@@H](C)CC)C(N)=O
Kd (lecB (Pseudomonas aeruginosa, UniProt Q9HYN5); binding, ITC; pH 7.5): 39 nM

CC[C@H](C)[C@H](NC(=O)[C@@H]1CSCc2cccc(c2)CSC[C@H](NC(=O)[C@@H](NC(=O)[C@H](Cc2ccc(O)cc2)NC(=O)[C@H](CO)NC(=O)[C@H](Cc2ccccc2)NC(=O)[C@H](CCSC)NC(C)=O)C(C)C)C(=O)N[C@@H]([C@@H](C)O)C(=O)N[C@@H](CC(C)C)C(=O)N[C@@H](CCCCN)C(=O)N[C@@H](CO)C(=O)N1)C(=O)N[C@@H](C)C(=O)N[C@@H](CCSC)C(=O)N[C@@H](Cc1c[nH]cn1)C(=O)NCC(=O)N[C@@H](CO)C(=O)NCC(=O)N[C@@H](CO)C(=O)NCC(=O)N[C@@H](CO)C(=O)N[C@@H](CC(=O)O)C(=O)N[C@@H](Cc1ccc(O)cc1)C(=O)N[C@@H](CCCCN)C(=O)N[C@@H](CC(=O)O)C(=O)N[C@@H](CC(=O)O)C(=O)N[C@@H](CC(=O)O)C(=O)N[C@@H](CC(=O)O)C(=O)N[C@@H](CCCCN)C(N)=O
Kd (FGFR1 (Homo sapiens, UniProt P11362); binding, BLI): > 10000 nM

CC(C)[C@@H]1NC(=O)[C@H](Cc2ccccc2)NC(=O)CSC[C@@H](C(N)=O)NC(=O)[C@H](CCC(=O)O)NC(=O)[C@H](CO)NC(=O)[C@H](Cc2c[nH]c3ccccc23)NC(=O)[C@H](C(C)C)NC(=O)[C@H](C(C)C)NC(=O)[C@H](Cc2ccc(O)cc2)NC(=O)[C@H](CC(=O)O)NC(=O)[C@H](Cc2c[nH]c3ccccc23)NC(=O)[C@H](Cc2ccc(O)cc2)NC(=O)[C@H](Cc2c[nH]c3ccccc23)NC(=O)[C@H](CCC(=O)O)NC1=O
Kd (Interleukin-1 receptor-like 2, D1-D3 domains (IL1RL2, Homo sapiens, UniProt Q9HB29); SPR; IL-36R D1-D3): 1100 nM

Nc1c(C(=O)Nc2ccncc2)sc2nc(-c3cccc(C(F)(F)F)c3)ccc12
Kd (HIV-1 TAR RNA hairpin, 2-AP at U25; binding, 2-aminopurine fluorescence titration; PBS; pH 7.4, with: 2-AP TAR RNA 500 nM): 230 ± 20 nM

CC(C)CC(NC(=O)C(NC(=O)NC(C(=O)O)C(C)C)C1CCNC(=N)N1)C(=O)NCCCNC(C(=O)O)C(OC1OC(CN)C(O)C1O)C1OC(n2ccc(=O)[nH]c2=O)C(O)C1O (stereo not shown)
Kd (mraY (Aquifex aeolicus, UniProt O66465); isothermal titration calorimetry; no added Mg2+): 14.8 nM

For quick reference, copied from above:
CCC(C(=O)OC)C1N=C(c2ccc(Cl)cc2)c2cc(OC)ccc2-n2c(C)nnc21 (stereo not shown)
Kd (Bromodomain-containing protein 2, BD2 (BRD2, Homo sapiens, UniProt P25440); binding, ITC): 17000 nM

O=C1N[C@@H](Cc2ccccc2)C(=O)N2CCCC[C@@H]2C(=O)N[C@@H](CCCCCC(=O)[C@@H]2CO2)C(=O)N[C@H]1Cc1ccccc1
Kd (HDAC8 (Homo sapiens, UniProt Q9BY41)): 3 ± 1 nM
